Results pooled from the literature.
Lines come from different studies, so protocols differ. ± gives the spread as reported.

With `CCCCCCCCCCCCCCCC(=O)N[C@@H](CCC(=O)NCCOCCOCCC(=O)NCCOCCOCCC(=O)NCCCC[C@H](NC(=O)[C@H](CC(=O)O)NC(=O)[C@H](CC(C)C)NC(=O)[C@H](Cc1ccc(O)cc1)NC(=O)[C@H](CCCCN)NC(=O)[C@H](CO)NC(=O)[C@H](Cc1ccc(O)cc1)NC(=O)[C@H](CC(=O)O)NC(=O)[C@H](CO)NC(=O)[C@@H](NC(=O)[C@H](Cc1ccccc1)NC(=O)[C@@H](NC(=O)CNC(=O)[C@H](CCC(N)=O)NC(=O)[C@@H](CO)NC(=O)[C@@H](N)Cc1c[nH]cn1)[C@@H](C)O)[C@@H](C)O)C(=O)N[C@@H](CCCNC(=N)N)C(=O)N[C@@H](CCCNC(=N)N)C(=O)N[C@@H](C)C(=O)N[C@@H](CCC(N)=O)C(=O)N[C@@H](CC(=O)O)C(=O)N[C@@H](Cc1ccccc1)C(=O)N[C@H](C(=O)N[C@@H](CCC(N)=O)C(=O)N[C@@H](Cc1c[nH]c2ccccc12)C(=O)N[C@@H](CC(C)C)C(=O)N[C@@H](CC(C)C)C(=O)N[C@@H](CC(N)=O)C(=O)N[C@H](C(=O)NCC(=O)NCC(=O)N1CCC[C@H]1C(=O)N[C@@H](CO)C(=O)N[C@@H](CO)C(=O)NCC(=O)N[C@@H](C)C(=O)N1CCC[C@H]1C(=O)N1CCC[C@H]1C(=O)N1CCC[C@H]1C(=O)N[C@@H](CO)C(N)=O)[C@@H](C)O)C(C)C)C(=O)O` the AUC(0-t) was 0.422 µg·h/mL (rhesus monkey, male, plasma; subcutaneous, 60 µg/kg, day 1, toxicokinetics, mean).
`CCCOC(=O)N1c2cc(CNC)ccc2[C@H](NC(=O)C(=O)Nc2ccc(Cl)c(F)c2)[C@H]1CNC(=N)N` gave an IC80 of 56.5 µM (Human immunodeficiency virus 1; viral infection, Env pseudovirus; TZM-bl, Du172.17 clade C).
For `CC(=O)NCCN(CC(=O)NCCN(CC(=O)NCCN(CC(=O)NCCC(N)=O)C(=O)C[C@@H](N)CCCNC(=N)N)C(=O)C[C@@H](N)CCCNC(=N)N)C(=O)C[C@@H](N)Cc1ccccc1`, “binding enthalpy ΔH°” read -45 ± 2.5 kJ/mol (HIV-1 TAR RNA; concentration not given, 25 °C).
For `C[C@H](Nc1ncnc(N)c1C#N)c1c(-c2ccccc2)[nH]c2c(Cl)cccc2c1=O`, the AUC(0-t) was 348 ± 39.2 µg·h/mL (CB17 SCID mice, xenograft, plasma; oral, 50 mg/kg once daily, day 14).
`CNCc1ccc2c(c1)N(C(=O)OCc1c(F)c(F)c(F)c(F)c1F)[C@H](CNC(=N)N)[C@H]2NC(=O)C(=O)Nc1ccc(Cl)c(F)c1` gave an IC80 of 5.81 µM (Human immunodeficiency virus 1; viral infection, Env pseudovirus; TZM-bl, 6405.v4.c34 clade D).
Under “binding enthalpy ΔH°”, `CC(=O)NCCN(CC(=O)NCCN(CC(=O)NCCN(CC(=O)NCCC(N)=O)C(=O)C[C@@H](N)CCCNC(=N)N)C(=O)C[C@@H](N)CCCCN)C(=O)C[C@@H](N)Cc1ccccc1` is recorded as -45.9 ± 0.9 kJ/mol (HIV-1 TAR RNA; concentration not given, 25 °C).

Some of these lines once more:
For `C[C@H](Nc1ncnc(N)c1C#N)c1c(-c2ccccc2)[nH]c2c(Cl)cccc2c1=O`, the AUC(0-t) was 348 ± 39.2 µg·h/mL (CB17 SCID mice, xenograft, plasma; oral, 50 mg/kg once daily, day 14).
